{"data": "Measurements pooled from the literature", "note": "Protocols differ between the studies behind these lines. Numbers after ± are the reported error."}
{"SMILES": "O=C(O)Cc1cccc(OC(=O)NCCCCCn2ccc3ccc(F)cc32)c1", "test system": "PBS with Triton X-100", "setting": "20 µM, 60 min, pH 7.4", "quantity": "parent remaining", "result": "> 95%"}
{"SMILES": "CC(C)[C@H](NC(=O)CNC(=O)[C@H](CCC(N)=O)NC(=O)[C@H](C)N)C(=O)O", "test system": "healthy male volunteers", "setting": "intravenous, 15 mg/kg/h, 2 h, added: LPS 2 ng/kg", "quantity": "subjects with mild AE", "result": "25%"}
{"SMILES": "CCCC(CCC)C(=O)OC1O[C@@H]2O[C@@]3(C)CC[C@H]4[C@H](C)CCC([C@H]1C)[C@@]24OO3 (stereo partly drawn)", "test system": "Tg(fli1:EGFP) zebrafish embryos", "setting": "5.0 µg/mL, up to 48 hpf", "quantity": "dead embryos", "result": "9 count"}
{"SMILES": "CN(C)c1ccc(OC(=O)NC2CCCCC2)cc1-c1ccccc1", "test system": "rat plasma", "quantity": "log hydrolysis rate constant", "result": -2.86}
{"SMILES": "CC(C)[C@H](NC(=O)CNC(=O)[C@H](CCC(N)=O)NC(=O)[C@H](C)N)C(=O)O", "assay": "Possibly drug-related", "test system": "human", "setting": "10 mg/kg, 3 days, thrice daily dosing", "quantity": "subjects with adverse events", "result": "33.3%"}
{"SMILES": "CCNc1cc2[o+]c3cc(NCC)c(C)cc3c(-c3ccccc3C(=O)OCCOCC[18F])c2cc1C", "test system": "rat", "setting": "60 min", "scale": "reference: heart over liver", "quantity": "tissue uptake ratio", "result": 6}
{"SMILES": "CC(C)C[C@H](NC(=O)[C@H](CCCCN)NC(=O)[C@H](CCC(=O)O)NC(=O)[C@H](C)NC(=O)[C@@H](NC(=O)[C@H](CCCCN)NC(=O)[C@H](CC(=O)O)NC(=O)[C@H](Cc1ccc(O)cc1)NC(=O)[C@H](Cc1ccccc1)NC(=O)[C@H](C)NC(=O)[C@H](CCCCN)NC(=O)[C@H](CC(C)C)NC(=O)[C@H](Cc1c[nH]c2ccccc12)NC(=O)[C@@H](N)CC(=O)O)C(C)C)C(=O)N[C@@H](CCCCN)C(=O)N[C@@H](CCC(=O)O)C(=O)N[C@@H](C)C(=O)N[C@@H](Cc1ccccc1)C(=O)N1CCC[C@H]1C(=O)N[C@@H](CC(=O)O)C(=O)N[C@@H](Cc1c[nH]c2ccccc12)C(=O)N[C@@H](C)C(=O)N[C@@H](CCCCN)C(=O)N[C@@H](C)C(=O)N[C@@H](C)C(=O)N[C@@H](Cc1ccc(O)cc1)C(=O)N[C@@H](CC(=O)O)C(=O)N[C@@H](CCCCN)C(=O)N[C@@H](C)C(=O)N[C@@H](C)C(=O)N[C@@H](CCC(=O)O)C(=O)N[C@@H](CCCCN)C(=O)N[C@@H](C)C(=O)N[C@@H](CCCCN)C(=O)N[C@@H](CCC(=O)O)C(=O)N[C@@H](C)C(=O)N[C@@H](C)C(=O)O", "test system": "cynomolgus monkey female, plasma", "setting": "intravenous infusion, 8 mg/kg, day 1, 30 min infusion", "quantity": "clearance", "result": "0.25 mL/min/kg"}
{"SMILES": "COC(=O)C[C@](O)(CCCC(C)(C)OC(C)=O)C(=O)O[C@@H]1C(OC)=C[C@]23CCCN2CCc2cc4c(cc2[C@H]13)OCO4", "test system": "CD1 mouse, lung", "setting": "oral, 1 mg/kg, 2 h", "quantity": "tissue concentration", "result": "101 ng/mL"}
{"SMILES": "CC[C@H](C)C(=O)N1CCC(NC(=O)Nc2ccc(OC(F)(F)F)c(F)c2)CC1", "test system": "healthy volunteers", "setting": "oral, 24 mg single dose, 14 (unit not given)", "quantity": "subjects with dyspnoea TEAE", "result": "0%"}
{"SMILES": "[2H]C([2H])([2H])C([2H])([2H])C([2H])([2H])OC(C(=O)OC1CCNCC1)(c1ccccc1)c1ccccc1", "assay": "measured: nasopharyngitis", "test system": "healthy Japanese male", "setting": "oral, 12 mg, 16 days, multiple ascending dose", "quantity": "adverse events", "result": "0%"}
{"SMILES": "CSCC[C@@H]1NC(=O)[C@@H]2CSSC[C@H](NC(=O)[C@H](CO)NC(=O)[C@H](C)N)C(=O)N[C@@H](CCCNC(=N)N)C(=O)N[C@@H]([C@@H](C)O)C(=O)N3CCC[C@H]3C(=O)N[C@@H](CCCCN)C(=O)N[C@@H](CC(=O)O)C(=O)N[C@H]3CSSC[C@H](NC(=O)[C@H](CCCCN)NC(=O)[C@H](CCCNC(=N)N)NC(=O)[C@H](CC(N)=O)NC1=O)C(=O)N[C@@H](CCCCN)C(=O)N[C@H]1CSSC[C@H](NC(=O)[C@@H]4CCCN4C(=O)[C@H](CC(=O)O)NC(=O)[C@H](C)NC3=O)C(=O)N[C@@H](C)C(=O)N[C@@H](CCCCN)C(=O)N[C@@H](CCC(=O)O)C(=O)N[C@@H]([C@@H](C)O)C(=O)NCC(=O)N[C@@H](CSSC[C@@H](C(N)=O)NC(=O)[C@H](CCCNC(=N)N)NC(=O)[C@H](CC(N)=O)NC1=O)C(=O)N1CCC[C@H]1C(=O)N[C@@H](Cc1ccc(O)cc1)C(=O)NCC(=O)N[C@@H](CCCCN)C(=O)N2", "test system": "DA rat, pristane-induced arthritis, serum", "setting": "subcutaneous, 0.1 mg/kg every other day, end of 21-day trial", "quantity": "albumin", "result": "3.04 g/dL"}
{"SMILES": "CCc1noc(CC)c1C(=O)O[C@H]1C(C)=C[C@]23C(=O)[C@@H](C=C(CO)[C@@H](O)[C@]12O)[C@H]1[C@@H](C[C@H]3C)C1(C)C", "test system": "human, dermis, Franz diffusion cell", "setting": "topical, 0.1% in hydroalcoholic gel, 21 h", "quantity": "dermal concentration", "result": "690 ± 257 nM"}
{"SMILES": "CC(CCC(=O)NCC(=O)O)C1CCC2C3C(O)CC4CC(OC5OC(C(=O)O)C(O)C(O)C5O)CCC4(C)C3CCC12C (stereo not drawn)", "test system": "human, SLCO1B1 *15/*35, plasma", "setting": "geometric mean, sex-adjusted", "quantity": "plasma concentration", "result": "38.9 ng/mL"}
{"SMILES": "[3H]c1sc(C)nc1C=C(C)C1CC2C(CCCC(C)C(O)C(C)C(=O)C(C)(C)C(O)CC(=O)O1)N2CCO (stereo not drawn)", "assay": "whole-body autoradiography", "test system": "CD2F1 mice, M109 FR− tumour periphery", "setting": "intravenous, 2.2 nmol/kg, 2 h", "quantity": "radioactivity in tissue", "result": "2.3 ± 0.5 µg-eq/g"}
{"SMILES": "CCCCCCCCCCCCCCC(=O)O.O=C1CCCC2C3CCCN4CCCC(CN12)C34 (stereo not drawn)", "assay": "shake-flask", "test system": "ultrapure water", "setting": "pH 7.0, 37 °C", "quantity": "log octanol-water partition coefficient", "result": 0.6}
{"SMILES": "CC(C)C[C@H](NC(=O)CNC(=O)[C@H](CCC(=O)O)NC(=O)[C@H](CCCCN)NC(=O)[C@H](CC(C)C)NC(=O)[C@H](C)NC(=O)[C@H](C)NC(=O)CNC(=O)[C@H](C)NC(=O)[C@H](CCCCN)NC(=O)[C@H](CCC(=O)O)NC(=O)[C@H](CC(C)C)NC(=O)[C@H](CCCCN)NC(=O)[C@H](CCCCN)NC(=O)[C@H](CC(C)C)NC(=O)[C@H](CC(C)C)NC(=O)[C@H](CCCCN)NC(=O)[C@H](Cc1c[nH]c2ccccc12)NC(=O)[C@@H](N)CCCCN)C(=O)N[C@@H](CC(C)C)C(=O)N[C@@H](CCCCN)C(=O)N[C@@H](C)C(=O)NCC(=O)N1CCC[C@H]1C(=O)N[C@@H](C)C(=O)N[C@@H](CC(C)C)C(=O)N[C@@H](C)C(=O)N[C@@H](CC(C)C)C(=O)N[C@@H](CC(C)C)C(=O)NCC(=O)N[C@@H](C)C(=O)N[C@@H](C)C(=O)N[C@@H](C)C(=O)N[C@@H](C)C(=O)N[C@@H](CC(C)C)C(=O)N[C@@H](C)C(=O)N[C@@H](CCCCN)C(N)=O", "assay": "circular dichroism", "test system": "POPC/POPG 1:1 vesicles", "setting": "20 µM", "quantity": "helicity", "result": "70%"}
{"SMILES": "C[C@]12CC[C@H](O)CC1CCC1C2[C@H](O)C(=O)[C@]2(C)[C@@H](c3ccc(=O)oc3)CC[C@]12O (stereo partly drawn)", "assay": "sulfation, substrate", "test system": "rat liver cytosol", "setting": "pH 7.4", "quantity": "Km", "result": "233 ± 28.4 µM"}
{"SMILES": "[11CH3]n1c(=O)n(CCCO)c(=O)c2c1nc(Oc1cccc(OC(F)(F)F)c1)n2Cc1ccc(Cl)cc1", "assay": "ex vivo biodistribution", "test system": "Sprague Dawley rat, heart", "setting": "5 min post injection", "quantity": "tracer uptake", "result": "2.06 ± 0.58 %ID/g"}
{"SMILES": "C/C=C/C=C/C/C=C/CCCCCCCc1cccc(O)c1O", "test system": "Wistar rat, male, plasma", "setting": "intravenous, 20 mg/kg", "quantity": "volume of distribution", "result": "1.23 ± 0.05 L/kg"}
{"SMILES": "C/C(=N\\OCCCN1CCCCC1)c1ccc(C(F)(F)F)cc1", "assay": "metabolic stability", "test system": "mouse, liver microsomes", "quantity": "scaled CLint", "result": "145 mL/min/kg"}
{"SMILES": "CC[C@H](C)[C@H](NC(=O)[C@H](Cc1c[nH]c2ccccc12)NC(=O)[C@H](CCCCN)NC(=O)[C@H](CC(C)C)NC(=O)[C@@H](NC(=O)[C@@H](NC(=O)CNC(=O)[C@H](CCCCN)NC(=O)[C@H](Cc1c[nH]cn1)NC(=O)[C@H](CCCCN)NC(=O)[C@H](Cc1c[nH]c2ccccc12)NC(=O)[C@H](C)NC(=O)[C@H](CC(C)C)NC(=O)[C@H](CO)NC(=O)[C@@H](NC(=O)[C@H](Cc1ccc(O)cc1)NC(=O)[C@H](CCCCN)NC(=O)[C@H](CCC(N)=O)NC(=O)CNC(=O)[C@H](CCCCN)NC(=O)[C@@H](NC(=O)[C@H](C)NC(=O)[C@H](CC(C)C)NC(=O)[C@H](Cc1ccccc1)NC(=O)[C@H](CCC(N)=O)NC(=O)[C@@H](NC(=O)[C@H](CC(C)C)NC(=O)[C@H](CCCCN)NC(=O)[C@H](CCSC)NC(=O)[C@H](Cc1ccccc1)NC(=O)[C@H](C)NC(=O)[C@H](C)NC(=O)[C@H](CCSC)NC=O)[C@@H](C)CC)[C@@H](C)O)C(C)C)[C@@H](C)O)[C@@H](C)CC)C(=O)N[C@@H](CC(N)=O)C(=O)N[C@@H](C)C(=O)NCC(=O)N[C@@H](CCC(N)=O)C(=O)N[C@@H](CO)C(=O)N[C@@H](Cc1ccccc1)C(=O)N[C@@H](CCC(=O)O)C(=O)N[C@@H](Cc1c[nH]c2ccccc12)C(=O)N[C@H](C(=O)N[C@@H](Cc1ccc(O)cc1)C(=O)N[C@@H](CCCCN)C(=O)N[C@@H](CCC(N)=O)C(=O)N[C@H](C(=O)N[C@@H](CCCCN)C(=O)N[C@@H](CCCCN)C(=O)N[C@@H](CC(C)C)C(=O)N[C@@H](Cc1c[nH]c2ccccc12)C(=O)N[C@@H](C)C(=O)O)[C@@H](C)CC)[C@@H](C)CC", "setting": "900 µM, pH 7.4, 25 °C", "quantity": "zeta potential", "result": "20.8 ± 3.8 mV"}
{"note": "A few entries again:"}
{"SMILES": "CSCC[C@@H]1NC(=O)[C@@H]2CSSC[C@H](NC(=O)[C@H](CO)NC(=O)[C@H](C)N)C(=O)N[C@@H](CCCNC(=N)N)C(=O)N[C@@H]([C@@H](C)O)C(=O)N3CCC[C@H]3C(=O)N[C@@H](CCCCN)C(=O)N[C@@H](CC(=O)O)C(=O)N[C@H]3CSSC[C@H](NC(=O)[C@H](CCCCN)NC(=O)[C@H](CCCNC(=N)N)NC(=O)[C@H](CC(N)=O)NC1=O)C(=O)N[C@@H](CCCCN)C(=O)N[C@H]1CSSC[C@H](NC(=O)[C@@H]4CCCN4C(=O)[C@H](CC(=O)O)NC(=O)[C@H](C)NC3=O)C(=O)N[C@@H](C)C(=O)N[C@@H](CCCCN)C(=O)N[C@@H](CCC(=O)O)C(=O)N[C@@H]([C@@H](C)O)C(=O)NCC(=O)N[C@@H](CSSC[C@@H](C(N)=O)NC(=O)[C@H](CCCNC(=N)N)NC(=O)[C@H](CC(N)=O)NC1=O)C(=O)N1CCC[C@H]1C(=O)N[C@@H](Cc1ccc(O)cc1)C(=O)NCC(=O)N[C@@H](CCCCN)C(=O)N2", "test system": "DA rat, pristane-induced arthritis, serum", "setting": "subcutaneous, 0.1 mg/kg every other day, end of 21-day trial", "quantity": "albumin", "result": "3.04 g/dL"}
{"SMILES": "CCc1noc(CC)c1C(=O)O[C@H]1C(C)=C[C@]23C(=O)[C@@H](C=C(CO)[C@@H](O)[C@]12O)[C@H]1[C@@H](C[C@H]3C)C1(C)C", "test system": "human, dermis, Franz diffusion cell", "setting": "topical, 0.1% in hydroalcoholic gel, 21 h", "quantity": "dermal concentration", "result": "690 ± 257 nM"}
